Experimental data from different studies.
A part holds a random share of what one study measured. Positions count from the first letter of the parent shown.

Series 1
Target: DBP, bZIP domain (human)
Method: DHFR protein complementation
Sample: yeast
Setting: single substitutions, most at no-binding floor
Relative to: wild-type JUN-FOS pair
Direction: higher = stronger binding
Starting sequence: JUN, bZIP domain (human); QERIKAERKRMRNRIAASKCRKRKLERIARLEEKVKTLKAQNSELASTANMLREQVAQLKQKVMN; partner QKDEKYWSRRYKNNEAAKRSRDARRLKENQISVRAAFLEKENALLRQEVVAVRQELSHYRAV
Substitution	binding fitness [natural log]
A40R	-1.49
A29L	-1.38
A29G	-1.44
Q41V	-1.38
K39Q	-1.45
E54A	-1.37
E44H	-1.46
A49Y	-1.48
L59F	-1.41
K36W	-1.52
E33I	-1.56
E33R	-1.51
L59G	-1.52
E33W	-1.5
A57Q	-1.2
Q55G	-1.44
E54T	-1.39
L45Q	-1.46
A40V	-1.27
K36M	-1.47
A40P	-1.5
S47K	-1.59
S47I	-1.41
K36R	-1.35
A49N	-1.55

Series 2
Target: Protein max, full length (MAX, Homo sapiens, UniProt P61244-2, residues 1-151)
Method: protein-binding microarray
Form: double-stranded DNA, one strand shown
Sample: in vitro
Tested at: not given
Setting: k-mer, scored over probes, only values ≥0.25
Direction: higher = stronger binding
Strand	E-score
CCGCCACG	0.344
AAAGCACG	0.355
ACACGCGA	0.411
AATCACGC	0.417
AGCACGCA	0.391
AACATGCG	0.426
ACGCGTTA	0.295
CGTACACG	0.397
ACGTGTTA	0.448
ATGCATGA	0.326
AACATGCA	0.269
CGCGCACG	0.418
ACACGAGA	0.348
AGGAGCAC	0.271
CCGCCCAC	0.28
CATGGCAC	0.357
ATATGGCC	0.274

Series 3
Target: Histone acetyltransferase KAT6A, winged helix 1, GST fusion (KAT6A, Homo sapiens, UniProt Q92794, residues 1-85)
Method: protein binding microarray
Form: double-stranded DNA, one strand shown
Sample: in vitro
Tested at: not given
Setting: 8-mer, flanks averaged, mean of 2 arrays, mostly near background
Relative to: not given
Direction: higher = stronger binding
Construct (chain): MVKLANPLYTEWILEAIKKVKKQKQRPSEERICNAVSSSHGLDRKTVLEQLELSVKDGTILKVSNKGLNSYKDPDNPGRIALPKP
Strand	E-score
CTTGGTAA	-0.0889
ACCGAACT	-0.236
CTATTCCA	-0.0646
AGACACGA	-0.032
GGTTAAGA	0.0107
TCAATGCA	-0.226
TGGCGCCA	-0.0327
AAGCTTAA	-0.0911
AGCTAGCT	-0.448
CACAGGTC	-0.2
AACAGGCA	-0.0379
ATTTTAGC	-0.000815
ATCAGTTC	-0.0722
GCGTTAAA	0.0838
GGTGTCAA	-0.026
AGCCCGTA	0.263
TAAGCAAA	-0.0556
ACGCAACA	0.0549
GGTTCATA	-0.0128
ATGCTTTG	-0.06

Series 4
Target: Phosphate system positive regulatory protein PHO4, full length, GST-tagged (PHO4, Saccharomyces cerevisiae, UniProt P07270, residues 1-312)
Method: competition protein-binding microarray
Form: double-stranded DNA, one strand shown
Sample: in vitro
Tested at: 2 µM
Setting: whole 60-bp probe, lowest competitor level
With: Cbf1 competitor, 0.05 µM
Direction: higher = stronger binding
Target sequence (chain): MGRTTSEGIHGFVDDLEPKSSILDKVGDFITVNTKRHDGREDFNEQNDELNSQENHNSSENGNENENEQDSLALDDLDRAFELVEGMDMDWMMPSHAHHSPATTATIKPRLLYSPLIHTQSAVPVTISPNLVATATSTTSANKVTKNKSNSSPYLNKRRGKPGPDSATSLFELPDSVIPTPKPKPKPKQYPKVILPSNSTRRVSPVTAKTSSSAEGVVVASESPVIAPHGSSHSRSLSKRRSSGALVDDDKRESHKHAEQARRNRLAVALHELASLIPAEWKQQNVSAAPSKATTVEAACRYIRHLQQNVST
Strand	fluorescence intensity [a.u.]
AAAGCGGTAATTTGCATGGTGGGTGCAGATATCTATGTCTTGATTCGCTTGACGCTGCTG	5750
AAATTACTAAGTTGAGCCGTGGGTGACGCCGTATGAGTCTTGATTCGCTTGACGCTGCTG	5410
GCCCATCATCGCGGCCACGCAACCCGGTAATCTCTAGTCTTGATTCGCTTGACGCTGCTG	6470
GAAGATTGGGTCTGCGTTGTGACGGAAGTGCCAGATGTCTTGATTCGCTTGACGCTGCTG	3540
AAATTACTAAGTTGCTGGGTGGGTGACGCCGTATGAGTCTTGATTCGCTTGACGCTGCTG	4110
GCTTGGAAGTCTCACCACGGGCAAATCTTCTTCTAAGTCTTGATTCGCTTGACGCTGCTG	5900
TTTGGTGACTTACACCACATGTAATGACGCTATGACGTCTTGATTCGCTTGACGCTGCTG	7890
TGTTAAGTTCAACAACATGTGAAATTCTTAGCTCCGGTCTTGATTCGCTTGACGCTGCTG	6010
CTTCGTTCCTTCCGTCACATGATGAGATAGAGGAATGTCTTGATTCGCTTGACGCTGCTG	7860
CATTGGTGTCATTGTCATGATCCACTCTGACAACAAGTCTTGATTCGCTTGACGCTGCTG	3780
CTTTCCCGATCTTGTATTGTGGGTGTAGCACATTTGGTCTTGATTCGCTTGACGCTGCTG	4990
CTTTCTGCCTTGGAAGGCGTGATGGTGATGGTACATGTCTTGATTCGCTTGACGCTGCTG	6770
CAGTTCAACCTCACTCGCGTGCGGAGGTGTGAGGTGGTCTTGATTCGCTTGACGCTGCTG	10000
TTAAGTGGGCTTACCCACGCTTTCGGTGCCTATGGTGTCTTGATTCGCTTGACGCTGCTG	7410
GAAGCTGTTATACTATTCGTGATTGTGGGCAAAAATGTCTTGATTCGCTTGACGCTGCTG	4320
CATACCCAACCTTGGCTTGTGGGTGAAGATATTTGTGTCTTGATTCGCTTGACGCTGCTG	5290
ATTATACAACAAACACACGTTAAGAGACGCAAACGGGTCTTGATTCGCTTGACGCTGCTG	7380
TTCCTTTGGATTTTCCGCGTGTGTTTTCTGACCGTTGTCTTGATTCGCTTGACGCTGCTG	8200
TGGATATGCCGATTTCTCGTGAATAAATTTTACGGAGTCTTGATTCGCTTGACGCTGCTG	3630
CGGGGTTAAGTTTGTCCAGTGGGTGGCTTGCAGCAGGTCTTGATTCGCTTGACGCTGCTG	4620
CCGTAGCCTCTTACCAATGTGACGGAGACCCCACCGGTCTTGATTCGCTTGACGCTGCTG	4510
ACTCCAAAATACATCCTCGTGGCAACCCAGGCTACGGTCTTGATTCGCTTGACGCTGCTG	13900
CTTCTGTAAATTTGACCAGTGGGTGGACGCGCCCCGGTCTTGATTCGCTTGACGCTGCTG	3670
CATACCCAACCTTGGAGCGTGGGTGAAGATATTTGTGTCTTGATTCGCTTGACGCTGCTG	7950

Series 5
Target: RING finger protein unkempt homolog, zinc fingers 1-6, GST-SBP tag (UNK, Homo sapiens, UniProt Q9C0B0, residues 30-357)
Chain of UniProt Q9C0B0 (30-357, looked up): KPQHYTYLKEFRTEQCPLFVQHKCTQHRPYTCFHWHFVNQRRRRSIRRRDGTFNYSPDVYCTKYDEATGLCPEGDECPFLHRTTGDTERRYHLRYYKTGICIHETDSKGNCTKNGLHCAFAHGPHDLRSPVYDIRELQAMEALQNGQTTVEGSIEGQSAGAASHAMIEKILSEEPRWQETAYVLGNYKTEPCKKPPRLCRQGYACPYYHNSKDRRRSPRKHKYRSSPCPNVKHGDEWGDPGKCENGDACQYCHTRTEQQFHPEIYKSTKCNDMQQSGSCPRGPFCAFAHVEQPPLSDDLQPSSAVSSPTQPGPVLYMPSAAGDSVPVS
Method: RNA Bind-n-Seq
Form: RNA
Sample: in vitro
Tested at: not given
Setting: RNA with constant flanks, human-mouse chimeric sites, ends assumed
Relative to: input RNA pool
Direction: higher = stronger binding
Strand	bound/input enrichment [ratio]
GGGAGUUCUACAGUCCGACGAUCAAAGAGUGGAUAGAGUGUGCACACGGGAUCGGUGGGACCCGGGCGAAGAAAGAGUGCAAGAUAGAGUUCGAUGACUUCGAAGAGUGCUUGCUUCGGCACAAAACGAUGAGGCGAAUGCAUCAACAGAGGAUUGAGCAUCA	0.284
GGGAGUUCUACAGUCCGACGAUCAAAGGCAAAAAGGGCAGCUGUGUCAUUUCAUAAGUAACUCUGGGGGAGGGAAAUUCUGUUCUUUUGUUUAAUUUUCCCCCAAAUGAAGCCAAAGUGUGUGUUGAAGAAGGAAGAAUGAAUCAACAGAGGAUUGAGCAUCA	0.161
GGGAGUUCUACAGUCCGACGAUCCAGCUGCGAGGCCGCGGGUGCCCGCCGGGCCUCCCCAGCAGCAGCCAUGGGCAUCAAAUUUUUAGAAGUUAUCAAACCAUUCUGUGCAGUUCUACCAGAAAUUCAGAAACCGGAAAGGAACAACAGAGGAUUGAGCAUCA	0.892
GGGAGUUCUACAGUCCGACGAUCCGGAGCCCUCCUCUCCCACAGGCCCAAGAUGUGACCCACCAGUGCCUUCUGUCUGCUUGUCAGCUCUGUCAAUCACGCCUGUCCUCUCACGCCCACACCAAGUGCCCAAAGUGGGGAGGGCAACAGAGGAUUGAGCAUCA	0.438
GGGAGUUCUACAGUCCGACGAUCAUGCAGUAUGAGACCAACAGCAUGGACUUCAAAGUUGGGGCAGAUGGGACAGUCUUCGCCACUAGGGAGCUGCAGGUCCCCUCCGAGCAGGUGGCGUUCACGGUGACUGCAUGGGACAGCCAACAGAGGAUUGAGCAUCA	0.205
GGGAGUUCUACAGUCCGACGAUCCAGCCUCAGAGCCCAGACUUCCUGGAUAUUACCAACCCUAAAGCGGUAUUAGAAAAUGCAUUGAGAAACUUCGCCUGUCUGACGACUGGAGAUGUGAUUGCCAUCAACUACAAUGAGAAGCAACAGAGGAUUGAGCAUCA	0.398
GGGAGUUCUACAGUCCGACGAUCUUUCUACUGCAGCAAACGAUGCUAAGAAUUAAGGAUCCUAAGAAGUCCCUGGAUUUUUAUACGAGGGUUCUUGGACUGACGCUAAUCCAAAAAUGUGACUUCCCUGCUAUGAAGUUCUCGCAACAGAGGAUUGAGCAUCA	0.141
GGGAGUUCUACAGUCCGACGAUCAGAUAUUAAGUAUUUUGAAAAAACUCGAACAGAUUUGACAAGGGUAGCCAGCUUGGAGUCUAGCAACUUGCCAAUGUGUUUACCAAUUUUGGGGGCUGUUUUUCUUUUCUUCUUUCAAAUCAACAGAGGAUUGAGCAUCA	0.391
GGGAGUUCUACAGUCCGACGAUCUAUAUCACCAAUGUCCUACAAAAUCCUGACUUGGCUCUGAGAAUGGCUGUGCGGAACAACUUAGCCGGUGCUGAAGAACUCUUUGCCCGGAAAUUUAAUGCUCUCUUCGCCCAGGGAAACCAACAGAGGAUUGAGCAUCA	0.587
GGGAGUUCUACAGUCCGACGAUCCACAGAGCAGCACCUACCUCCUCCUUCUUUCCACACCUGCAAACUCUUUUACUUGGGCUGAAUAUUUAGUGUAAUUACAUCUCAGCUUUGAGGGCUCCUGUGGCAAAUUCCCGGAUUAAACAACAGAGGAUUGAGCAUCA	0.751
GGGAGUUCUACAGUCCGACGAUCCCCUCCCCGGGCCACCCACCCCUCCCGCUCCCAGCGGGAGAUCCAGGUUUCUUCUUAUUUCAUAGCCAAUAAGAAAAAUGUUCUACGCACAUUUUGUCCUCAGUAAACGAGGGCCUCUGGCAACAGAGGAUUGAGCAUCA	0.481

Excerpt of the above (series 3):
Strand	E-score
ACGCAACA	0.0549
TCAATGCA	-0.226
GGTTAAGA	0.0107
AGACACGA	-0.032
ATCAGTTC	-0.0722
AACAGGCA	-0.0379
GGTTCATA	-0.0128
AGCTAGCT	-0.448
ATGCTTTG	-0.06
ATTTTAGC	-0.000815
CTATTCCA	-0.0646
GGTGTCAA	-0.026
AGCCCGTA	0.263
CACAGGTC	-0.2
